Assay results collected from several papers.
Every numbered part comes from another study and shows a few of its results, in no order.

Block 1
Target: Histone acetyltransferase KAT6A, both winged helices, GST fusion (KAT6A, Homo sapiens, UniProt Q92794, residues 1-181)
Technique: protein binding microarray
Molecule type: double-stranded DNA, one strand shown
Sample: in vitro
Concentration: not given
Setting: 8-mer, flanks averaged, mean of 2 arrays, mostly near background
Baseline: not given
Reading: higher = stronger binding
Quantity: E-score
Construct (chain): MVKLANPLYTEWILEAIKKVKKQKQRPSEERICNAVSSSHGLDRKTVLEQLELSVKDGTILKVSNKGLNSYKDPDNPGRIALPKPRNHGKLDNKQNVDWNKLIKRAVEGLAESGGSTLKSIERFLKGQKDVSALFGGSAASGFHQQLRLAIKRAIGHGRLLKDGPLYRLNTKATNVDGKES
ACAGAACG: -0.0429
AGCGCTGC: 0.309
AGGAACTG: -0.0991
CTCTGTGA: -0.19
ACAAATTG: -0.0414
TCACCCAA: -0.165
ACACTCCT: -0.0949

Block 2
Target: Interferon regulatory factor 5, full length, phosphomimetic (IRF5, Homo sapiens, UniProt Q13568-2, residues 1-514, K96S/S451D/S453D/S456D/S462D)
Technique: protein-binding microarray
Molecule type: double-stranded DNA, one strand shown
Sample: in vitro
Concentration: 250 nM
Setting: 60-bp whole probe
Added: salmon DNA 0.4 mg/ml
Baseline: random background probes
Reading: higher = stronger binding
Quantity: log fluorescence
Shared flanks, not repeated: GCCTAGCAC … GTCTTGATTCGCTTGACGCTGCTG
GACGGTATCGGTACTGGGGACGTGCTA: 4.49 z-score
GACGGTTGCCTTCTCCTGACGTGCTAG: 0.0753 z-score
TCAAAACTCGTATGTGACACTGTGCTA: 0.302 z-score
TCAACTCTCTACATGTGACTGTGCTAG: 0.359 z-score
GACGAACTGAGACTGGAGATGTGCTAG: -0.534 z-score
TTAGGACTGGACATTGGGTTAGTGCTA: -0.504 z-score
GACGGACTGGACTTTCGGGACGTGCTA: 3.71 z-score

Block 3
Target: Ras GTPase-activating protein-binding protein 1, full length (G3BP1, Homo sapiens, UniProt Q13283)
UniProt Q13283, sequence (whole entry, looked up): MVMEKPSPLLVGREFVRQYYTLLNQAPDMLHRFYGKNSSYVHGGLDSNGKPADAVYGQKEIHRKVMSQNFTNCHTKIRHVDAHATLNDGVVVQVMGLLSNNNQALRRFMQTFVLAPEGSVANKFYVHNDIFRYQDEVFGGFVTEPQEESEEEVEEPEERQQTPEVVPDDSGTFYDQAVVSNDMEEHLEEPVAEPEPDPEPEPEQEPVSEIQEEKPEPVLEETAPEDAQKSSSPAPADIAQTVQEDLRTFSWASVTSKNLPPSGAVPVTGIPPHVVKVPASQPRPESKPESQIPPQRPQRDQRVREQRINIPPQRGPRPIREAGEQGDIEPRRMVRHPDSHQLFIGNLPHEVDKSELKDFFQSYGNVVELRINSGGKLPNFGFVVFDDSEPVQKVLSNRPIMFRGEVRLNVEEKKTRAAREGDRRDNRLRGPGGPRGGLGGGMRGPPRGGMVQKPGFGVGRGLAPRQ
Technique: RNA Bind-n-Seq
Molecule type: RNA
Sample: in vitro
Concentration: 200 nM
Setting: whole 134-nt RNA, ends assumed
Added: 150 mM LiCl
Baseline: input library
Reading: higher = stronger binding
Quantity: log2 enrichment
Library: 7-deaza-guanosine replaces G
Shared flanks, not repeated: GGGAGUUCUACAGUCCGACGAUC … UGGAAUUCUCGGGUGUCAAGG
ACCAUGCAGGUGGGCAUCUUUGGGAAGUGAGGCAAGGGGGGGAUAGGGAGGGGGGUAACACUUUGGGAACAGGUGGUCCCAGGUCGUUUC: 0.228
AAGUCCUGUGCUACACAUCGUAUGUACCGAAUCGGGUUUUUUUGGGUGGGAAAGGGAAAGUAUUAUGUUACGCCGUUCGGAUCUGCACUU: -0.291
GCAGGAAGUAAAAACAAAUGGAAAAACUUCGGAUAGUGGCAGGGGUGGGGGUUGCUAAGGAAAGGGUGGGAUGGGAGUGGGUAAAGAGUU: 0.0635
UAGCUUUAGAGGAGGAUCUGAUGGAUAUGGCAGUGGACGUGGAUUUGGGGAUGGCUAUAAUGGGUAUGGAGGAGGACCUGGAGGUGGCAA: -0.209
UCCUGUGCUACACAUCGUAUGUACCGAAUCGGGUUUGGGUUUUUUUGGGUUUUUUUGGGAAAGUAUUAUGUUACGCCGUUCGGAUCUGCA: 0.77

Single results of other studies
PhoQ, residues 284 288 289 292 302 303 SSTLLI — fold induction (PhoP, residues 12 14 15 18 19 NQCAL (Escherichia coli, UniProt P23836); Sort-seq, refers to: YFP reporter; E. coli; PhoQ-PhoP variant library, added: 10 µM Mg2+; baseline: high Mg2+ state, higher = stronger signaling): 1.24

Excerpt of the above (block 3):
AAGUCCUGUGCUACACAUCGUAUGUACCGAAUCGGGUUUUUUUGGGUGGGAAAGGGAAAGUAUUAUGUUACGCCGUUCGGAUCUGCACUU: -0.291
UAGCUUUAGAGGAGGAUCUGAUGGAUAUGGCAGUGGACGUGGAUUUGGGGAUGGCUAUAAUGGGUAUGGAGGAGGACCUGGAGGUGGCAA: -0.209
ACCAUGCAGGUGGGCAUCUUUGGGAAGUGAGGCAAGGGGGGGAUAGGGAGGGGGGUAACACUUUGGGAACAGGUGGUCCCAGGUCGUUUC: 0.228
